Results gathered from unrelated publications.
Lines come from different studies, so protocols differ. ± marks the error that the study gave.
UniProt Q13163, sequence (whole entry, looked up): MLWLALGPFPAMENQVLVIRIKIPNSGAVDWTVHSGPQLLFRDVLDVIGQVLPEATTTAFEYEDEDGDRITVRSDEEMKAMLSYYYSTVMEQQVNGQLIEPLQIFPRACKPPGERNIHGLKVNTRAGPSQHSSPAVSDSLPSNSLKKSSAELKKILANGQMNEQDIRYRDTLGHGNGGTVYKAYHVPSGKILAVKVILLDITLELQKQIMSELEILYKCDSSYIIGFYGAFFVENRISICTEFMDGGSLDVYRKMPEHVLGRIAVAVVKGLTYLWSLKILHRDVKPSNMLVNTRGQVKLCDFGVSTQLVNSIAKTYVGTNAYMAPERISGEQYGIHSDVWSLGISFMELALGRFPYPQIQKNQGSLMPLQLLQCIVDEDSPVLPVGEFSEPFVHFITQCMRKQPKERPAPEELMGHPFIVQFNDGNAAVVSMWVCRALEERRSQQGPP

| SMILES | target or system | assay | test system | setting | how to read | endpoint | value |
| --- | --- | --- | --- | --- | --- | --- | --- |
| O=C1NC2(CC2)COc2ncc(F)cc2[C@H]2COCCN2c2ccn3ncc1c3n2 | – | – | Sprague-Dawley rat, female, kidneys | oral, 5 mg/kg/day, 4 weeks, end of treatment | – | organ-to-brain weight ratio | 113 ± 13.1% |
| CN(C)[C@H]1C[C@@]23CC[C@@]4(O2)C(=CC[C@]2(C)[C@@H](c5ccc6ccncc6c5)CC[C@H]24)C=C3[C@@H](O)[C@@H]1O | MAP2K5 (Homo sapiens, UniProt Q13163) | ATP probe labelling, inhibitor, KiNativ profiling | – | 0.1 µM | – | inhibition | -2.4% |
| CCOc1ccccc1-n1c(CN2CCNCC2)nc2ccccc2c1=O | – | – | C57BL/6 mouse, male, plasma | oral, 6 mg/kg | – | AUC(0-t) | 2120 nM·h |
| CC(C)C[C@H](NC(=O)[C@H](C)NC(=O)[C@H](CCCCN)NC(=O)CCNC(=S)Nc1ccc2c(c1)C(=O)OC21c2ccc(O)cc2Oc2cc(O)ccc21)C(=O)N[C@@H](CCC(=O)O)C(=O)N[C@H](C(=O)N[C@@H](CC(C)C)C(=O)N[C@@H](CCCNC(=N)N)C(=O)N[C@@H](CCCNC(=N)N)C(=O)N[C@H](C(=O)NCC(=O)N[C@@H](CC(=O)O)C(=O)NCC(=O)N[C@H](C(=O)N[C@@H](CCC(N)=O)C(=O)N[C@@H](CCCNC(=N)N)C(=O)N[C@@]1(C)CCCC=CCCC[C@@](C)(C(=O)N[C@@H](Cc2ccccc2)C(N)=O)NC(=O)[C@H]([C@@H](C)O)NC(=O)[C@H](CCC(=O)O)NC(=O)[C@H](Cc2c[nH]cn2)NC1=O)C(C)C)C(C)C)[C@@H](C)O | – | circular dichroism | potassium phosphate buffer | 20 µM, pH 7.5 | – | α-helicity | 68% |
| COc1ccccc1-c1n[nH]c2nc(N[C@H]3CC[C@H](NS(=O)(=O)CC(C)C)CC3)ncc12 | – | bead binding, competition bead pull-down, item: LINJ.25.1160 | Leishmania donovani extract | 10 µM | baseline: vehicle | relative abundance | 0.68 |
| CC(CCC(=O)NCC(=O)O)C1CCC2C3C(O)CC4CC(OC5OC(C(=O)O)C(O)C(O)C5O)CCC4(C)C3CCC12C (stereo not shown) | – | – | women, T/C genotype, plasma | dose not given, geometric mean | – | glucuronide to parent ratio | 0.089 |
| N#[11C]c1ccc(-c2csc(NN=C3CCCC3)n2)cc1 | – | – | C57BL/6 mouse, male | intravenous, 3 MBq, 15 min | – | uptake in blood | 5.1 ± 0.4 %ID/g |
| CC[C@H](C)[C@H](NC(=O)[C@H](CCCCN)NC(=O)CNC(=O)[C@H](CC(C)C)NC(=O)[C@H](Cc1ccccc1)NC(=O)[C@H](CCCCN)NC(=O)[C@H](CO)NC(=O)[C@H](Cc1ccccc1)NC(=O)[C@H](Cc1c[nH]c2ccccc12)NC(=O)[C@H](CCC(N)=O)NC(=O)[C@@H](NC(=O)[C@H](Cc1ccccc1)NC(=O)CCCCCNC(=O)CN1CCN(CC(=O)O)CCN(CC(=O)O)CCN(CC(=O)O)CC1)C(C)C)C(=O)N[C@@H](CCC(=O)O)C(=O)N1CCC[C@H]1C(=O)N[C@H](CC(=O)O)C(=O)N[C@H](C(=O)N[C@@H](CO)C(=O)N[C@@H](CCC(N)=O)C(=O)N[C@H](C(=O)N[C@@H](CCC(N)=O)C(=O)N[C@@H](CC(=O)O)C(=O)N1CCC[C@H]1C(=O)N[C@@H](CC(N)=O)C(=O)N[C@@H](CC(=O)O)C(=O)N[C@@H](CCC(N)=O)C(=O)N[C@@H](Cc1ccc(O)cc1)C(=O)N[C@@H](CCC(=O)O)C(=O)N1CCC[C@H]1C(=O)N[C@@H](Cc1ccccc1)C(=O)O)C(C)C)C(C)C [copper-64 labelled] | – | – | female mice, EMT6 tumour-bearing, spleen | 2 h, uncleavable control tracer, vehicle-treated | – | tissue uptake | 2.38 ± 0.19 %ID/g |
| CSCC[C@H](N)C(=O)N[C@@H](C)C(=O)N[C@@H](CCCNC(=N)N)C(=O)N[C@@H](CCCNC(=N)N)C(=O)N[C@@H](CC(=O)O)C(=O)N[C@@H](CCCCN)C(=O)N[C@H](C(=O)N[C@@H](CC(=O)O)C(=O)N[C@@H](Cc1ccccc1)C(=O)N[C@@H](C)C(=O)N[C@@H](CCCNC(=N)N)C(=O)N[C@@H](CCCNC(=N)N)C(=O)N[C@@H](CCCNC(=N)N)C(=O)N[C@@H](CCCNC(=N)N)C(=O)NCCCCCC(=O)NCCCCC(NC(=O)CCCCCNC(=O)[C@H](CCCNC(=N)N)NC(=O)[C@H](CCCNC(=N)N)NC(=O)[C@H](CCCNC(=N)N)NC(=O)[C@H](CCCNC(=N)N)NC(=O)[C@H](C)NC(=O)[C@H](Cc1ccccc1)NC(=O)[C@H](CC(=O)O)NC(=O)[C@@H](NC(=O)[C@H](CCCCN)NC(=O)[C@H](CC(=O)O)NC(=O)[C@H](CCCNC(=N)N)NC(=O)[C@H](CCCNC(=N)N)NC(=O)[C@H](C)NC(=O)[C@@H](N)CCSC)[C@@H](C)O)C(=O)NCCCCC(NC(=O)C(CCCCNC(=O)CCCCCNC(=O)[C@H](CCCNC(=N)N)NC(=O)[C@H](CCCNC(=N)N)NC(=O)[C@H](CCCNC(=N)N)NC(=O)[C@H](CCCNC(=N)N)NC(=O)[C@H](C)NC(=O)[C@H](Cc1ccccc1)NC(=O)[C@H](CC(=O)O)NC(=O)[C@@H](NC(=O)[C@H](CCCCN)NC(=O)[C@H](CC(=O)O)NC(=O)[C@H](CCCNC(=N)N)NC(=O)[C@H](CCCNC(=N)N)NC(=O)[C@H](C)NC(=O)[C@@H](N)CCSC)[C@@H](C)O)NC(=O)CCCCCNC(=O)[C@H](CCCNC(=N)N)NC(=O)[C@H](CCCNC(=N)N)NC(=O)[C@H](CCCNC(=N)N)NC(=O)[C@H](CCCNC(=N)N)NC(=O)[C@H](C)NC(=O)[C@H](Cc1ccccc1)NC(=O)[C@H](CC(=O)O)NC(=O)[C@@H](NC(=O)[C@H](CCCCN)NC(=O)[C@H](CC(=O)O)NC(=O)[C@H](CCCNC(=N)N)NC(=O)[C@H](CCCNC(=N)N)NC(=O)[C@H](C)NC(=O)[C@@H](N)CCSC)[C@@H](C)O)C(N)=O)[C@@H](C)O (stereo partly shown) | – | – | C57BL/6 mouse female, femur | dose not given, 6 h | baseline: total | mean tissue distribution | 1.15% |
| CS(C)(=O)=Nc1ccc(-c2ccc(-c3nc4cc(O[C@@H]5CO[C@H]6[C@@H]5OC[C@H]6O)[nH]c4cc3F)cc2)cc1 | PIM3 (Homo sapiens, UniProt Q86V86) | enzyme activity, inhibitor | – | 10 µM | – | inhibition | -9% |
| CCCCC[C@H]1C(=O)N[C@H](C)C(=O)N(C)[C@@H](CCCCC)C(=O)N[C@H](C)C(=O)N(C)[C@@H](CCCCC)C(=O)N[C@H](C)C(=O)N(C)[C@@H](CCCCC)C(=O)N[C@H](C)C(=O)N1C | – | PAMPA, HPLC-UV | – | 500 µM, pH 7.4 | – | log Papp | -6.48 ± 0.08 |
| C[C@H](NCc1ccc(-c2ccc(C(F)(F)F)cc2)cc1)C(N)=O | – | – | rat, plasma | oral, 10 mg/kg, 2 h | – | concentration | 0.73 µg/mL |
| COc1ccccc1-c1n[nH]c2nc(NC3CCN(C(=O)Cc4ccc(F)cc4F)CC3)ncc12 | – | bead binding, competition bead pull-down, item: LINJ.34.0720 | Leishmania donovani extract | 10 µM | baseline: vehicle | relative abundance | 0.84 |
| C#Cc1c(F)ccc2cc(O)cc(-c3ncc4c(N5CC6CCC(C5)N6C(=O)OC(C)OC(=O)[C@@H](N)C(C)C)nc(OC[C@@]56CCCN5C[C@H](F)C6)nc4c3F)c12 (stereo partly shown) | – | item: prodrug | mouse whole blood | 1 µM | – | t1/2 | 34.7 min |
| C/C(=N\OCCCN1CCCCC1)c1ccc(C(F)(F)F)cc1 | – | – | mouse, plasma | oral, 100 mg/kg twice daily, day 7 | – | AUC(0-t) | 6.57 ± 3.2 µg·h/mL |
| CN1Cc2cc(Cl)ccc2-n2c(nnc2C2CCN(c3cccc([18F])n3)CC2)C1 | – | – | C57BL/6 mouse male, kidney | intravenous, 3.7 MBq, 15 min | – | tissue uptake | 11.2 ± 2.25 %ID/g |
| CC[C@H](C)[C@H](NC(=O)[C@H](CO)NC(=O)[C@H](Cc1ccc(O)cc1)NC(=O)[C@H](Cc1ccc(O)cc1)NC(=O)[C@H](CC(N)=O)NC(=O)CNC(=O)[C@H](CO)NC(=O)[C@H](Cc1ccc(O)cc1)NC(=O)[C@H](CO)NC(=O)[C@H](CO)NC(=O)[C@H](CC(N)=O)NC(=O)COCCOCCNC(=O)CN1CCN(CC(=O)O)CCN(CC(=O)O)CCN(CC(=O)O)CC1)C(=O)N[C@@H](CC(C)C)C(N)=O [copper-64 labelled] | – | dynamic PET | tamoxifen-induced PDAC mouse model, pancreas | 0.9 min, CLDN4-expressing tumours | – | maximum pancreas uptake | 19.7 %IA/cc |
| CC(C)(C)C(=O)OCOP(=O)(OCOC(=O)C(C)(C)C)C1CCCN(O)C1=O (stereo not shown) | NCI-H460 | – | – | – | – | log GI50 | -6.25 log M |
| CC(=O)NCCCC[C@@H]1NC(=O)[C@H](Cc2c[nH]c3c(C)cccc23)NC(=O)[C@H]([C@@H](C)O)NC(=O)[C@H](CC(N)=O)NC(=O)[C@@H](NC(C)=O)C(C)(C)SSC(C)(C)[C@@H](C(=O)N[C@@H](Cc2ccc(OCCN)cc2)C(=O)N[C@@H](Cc2ccc3ccccc3c2)C(=O)NC2(C(=O)N[C@@H](CCC(=O)O)C(=O)N[C@@H](CC(N)=O)C(=O)N[C@@H](Cc3cccnc3)C(=O)N(C)CC(N)=O)CCOCC2)NC1=O | – | equilibrium dialysis | rabbit, plasma | 1 µM | – | plasma protein binding | 71.8 ± 0.4% |
